Assay results from different studies.
Each numbered part is a random draw from the data of one study; scales do not carry over between parts. Substitutions count along the parent as printed.
Chain of UniProt Q8L7G0 (whole entry, looked up): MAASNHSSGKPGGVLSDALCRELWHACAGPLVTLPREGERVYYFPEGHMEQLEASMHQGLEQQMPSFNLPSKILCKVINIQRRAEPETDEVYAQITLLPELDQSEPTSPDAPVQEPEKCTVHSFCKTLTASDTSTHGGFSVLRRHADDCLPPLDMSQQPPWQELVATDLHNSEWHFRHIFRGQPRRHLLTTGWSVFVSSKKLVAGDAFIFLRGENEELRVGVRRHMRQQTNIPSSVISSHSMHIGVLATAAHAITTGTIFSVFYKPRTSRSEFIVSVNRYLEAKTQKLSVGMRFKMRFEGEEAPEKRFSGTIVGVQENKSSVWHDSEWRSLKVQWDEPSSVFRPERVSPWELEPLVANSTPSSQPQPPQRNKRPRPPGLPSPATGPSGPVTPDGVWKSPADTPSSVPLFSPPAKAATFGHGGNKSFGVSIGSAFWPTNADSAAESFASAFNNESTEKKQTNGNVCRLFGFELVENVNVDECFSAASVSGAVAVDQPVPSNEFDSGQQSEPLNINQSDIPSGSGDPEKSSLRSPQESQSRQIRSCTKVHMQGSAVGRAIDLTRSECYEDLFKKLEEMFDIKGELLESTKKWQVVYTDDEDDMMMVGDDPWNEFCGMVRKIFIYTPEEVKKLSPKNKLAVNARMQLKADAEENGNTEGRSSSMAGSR
Chain of UniProt Q9ZSY8 (whole entry, looked up): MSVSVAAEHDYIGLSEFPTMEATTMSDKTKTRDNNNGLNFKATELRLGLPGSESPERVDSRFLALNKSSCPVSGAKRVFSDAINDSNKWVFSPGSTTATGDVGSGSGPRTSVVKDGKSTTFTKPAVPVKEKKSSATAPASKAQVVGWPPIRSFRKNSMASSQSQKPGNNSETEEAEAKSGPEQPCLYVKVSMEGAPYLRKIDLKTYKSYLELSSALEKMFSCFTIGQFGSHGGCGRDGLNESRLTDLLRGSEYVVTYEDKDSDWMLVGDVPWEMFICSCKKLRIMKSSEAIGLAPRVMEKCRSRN
Chain of UniProt Q9C5X0 (whole entry, looked up): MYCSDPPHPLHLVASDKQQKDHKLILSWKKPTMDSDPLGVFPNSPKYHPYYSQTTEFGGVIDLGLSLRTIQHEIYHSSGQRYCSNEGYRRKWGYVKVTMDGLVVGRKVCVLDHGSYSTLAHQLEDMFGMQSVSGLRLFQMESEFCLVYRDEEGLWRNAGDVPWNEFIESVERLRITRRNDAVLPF
Chain of UniProt P93024 (whole entry, looked up): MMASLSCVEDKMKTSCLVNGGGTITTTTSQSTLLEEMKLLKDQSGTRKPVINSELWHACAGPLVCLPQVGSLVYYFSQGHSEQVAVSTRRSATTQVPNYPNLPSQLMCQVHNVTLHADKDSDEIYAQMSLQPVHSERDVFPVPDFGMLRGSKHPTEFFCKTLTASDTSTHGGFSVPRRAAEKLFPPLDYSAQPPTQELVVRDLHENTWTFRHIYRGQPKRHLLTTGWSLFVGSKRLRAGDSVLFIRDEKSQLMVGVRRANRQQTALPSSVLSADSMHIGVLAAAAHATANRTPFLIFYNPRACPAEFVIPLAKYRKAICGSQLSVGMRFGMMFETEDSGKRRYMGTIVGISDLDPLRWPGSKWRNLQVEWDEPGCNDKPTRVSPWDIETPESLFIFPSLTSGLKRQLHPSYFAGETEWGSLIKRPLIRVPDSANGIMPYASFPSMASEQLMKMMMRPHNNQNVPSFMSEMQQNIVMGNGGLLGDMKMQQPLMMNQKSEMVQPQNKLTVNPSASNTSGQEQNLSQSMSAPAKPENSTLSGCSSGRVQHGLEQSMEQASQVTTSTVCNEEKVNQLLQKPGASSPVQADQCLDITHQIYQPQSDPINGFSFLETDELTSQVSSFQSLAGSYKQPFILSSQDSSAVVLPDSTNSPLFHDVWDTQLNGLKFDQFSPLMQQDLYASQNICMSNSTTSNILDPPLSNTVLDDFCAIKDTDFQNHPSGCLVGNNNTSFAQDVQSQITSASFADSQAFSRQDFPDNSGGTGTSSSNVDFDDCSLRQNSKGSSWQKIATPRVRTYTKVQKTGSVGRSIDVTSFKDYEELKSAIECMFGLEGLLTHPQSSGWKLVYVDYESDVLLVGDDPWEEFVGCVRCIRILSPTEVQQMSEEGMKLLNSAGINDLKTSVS
Chain of UniProt Q9XID4 (whole entry, looked up): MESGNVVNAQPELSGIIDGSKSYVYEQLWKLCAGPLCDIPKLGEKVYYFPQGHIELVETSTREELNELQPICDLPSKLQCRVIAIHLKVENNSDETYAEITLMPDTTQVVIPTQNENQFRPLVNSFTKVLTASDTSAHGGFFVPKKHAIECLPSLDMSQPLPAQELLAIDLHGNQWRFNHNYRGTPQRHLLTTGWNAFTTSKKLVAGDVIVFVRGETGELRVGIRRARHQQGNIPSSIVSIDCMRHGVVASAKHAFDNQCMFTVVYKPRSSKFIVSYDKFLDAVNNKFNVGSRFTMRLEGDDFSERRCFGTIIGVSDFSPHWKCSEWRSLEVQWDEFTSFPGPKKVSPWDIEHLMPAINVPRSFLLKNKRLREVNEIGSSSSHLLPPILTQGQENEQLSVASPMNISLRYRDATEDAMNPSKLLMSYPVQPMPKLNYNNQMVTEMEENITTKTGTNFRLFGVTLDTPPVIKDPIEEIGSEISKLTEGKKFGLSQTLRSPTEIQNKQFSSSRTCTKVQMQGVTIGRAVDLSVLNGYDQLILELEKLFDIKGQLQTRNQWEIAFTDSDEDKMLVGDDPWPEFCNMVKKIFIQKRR

Set 1
Sequence: B1 (IAA4)
Technique: two-hybrid
Relative to: out of 4 tests
Direction: higher = firmer interaction
B1: IAA4 (Arabidopsis thaliana, UniProt P33077); chain MEKVDVYDELVNLKATELRLGLPGTEETVSCGKSNKRVLPEATEKEIESTGKTETASPPKAQIVGWPPVRSYRKNNVQTKKSESEGQGNYVKVSMDGAPYLRKIDLTMYKQYPELMKSLENMFKFSVGEYFEREGYKGSDFVPTYEDKDGDWMLVGDVPWEMFVSSCKRLRIMKGSEVKGLGCGGL
partner	positive tests
IAA27 (Arabidopsis thaliana, UniProt Q9ZSY8)	4
ARF12 500-593 (Arabidopsis thaliana, UniProt Q9XID4)	0
ARF5 788-902 (Arabidopsis thaliana, UniProt P93024)	4
ARF1 538-665 (Arabidopsis thaliana, UniProt Q8L7G0)	0
IAA14 (Arabidopsis thaliana, UniProt Q38832)	3
IAA34 (Arabidopsis thaliana, UniProt Q9C5X0)	4

Set 2
Target: CEBPA, bZIP domain (human)
Technique: DHFR protein complementation
Medium: yeast
Setting: single substitutions, most at no-binding floor
Relative to: wild-type JUN-FOS pair
Direction: higher = stronger binding
Parent: JUN, bZIP domain (human); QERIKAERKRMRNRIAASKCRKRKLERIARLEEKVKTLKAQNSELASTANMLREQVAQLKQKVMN; partner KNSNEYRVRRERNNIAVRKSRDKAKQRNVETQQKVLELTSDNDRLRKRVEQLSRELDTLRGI
Substitution	binding fitness [natural log]
V35L	-1.44
V35S	-1.46
R30S	-1.38
S43D	-1.4
Q41F	-1.56
L31T	-1.48
E33S	-1.44
R30E	-1.39
K34C	-1.42
V56R	-1.52

Set 3
Target: Interferon regulatory factor 5, full length, phosphomimetic (IRF5, Homo sapiens, UniProt Q13568-2, residues 1-514, K96S/S451D/S453D/S456D/S462D)
Technique: protein-binding microarray
Form: double-stranded DNA, one strand shown
Medium: in vitro
Concentration: 250 nM
Setting: 60-bp whole probe
Together with: salmon DNA 0.4 mg/ml
Relative to: random background probes
Direction: higher = stronger binding
Shared flanks, not repeated: GCCTAGCAC … GTCTTGATTCGCTTGACGCTGCTG
Strand	log fluorescence
GACGATTACAGACTGGAGACGTGCTAG	-0.195 z-score
TTAGGTTTCGATTTCGGTTAGTGCTAG	10.6 z-score
AGCAGAAAGTGAAATACCCTCGTGCTA	2.29 z-score
TTAGGACTGCTACTTCTTTAGTGCTAG	-0.234 z-score
TTAGGCCTGGGGTTTCGGTTAGTGCTA	5.8 z-score
TGAGATTCCAGTTTCGATTAGTGCTAG	9.83 z-score
GACGGACTGCTTATCCTGTCGTGCTAG	-0.0365 z-score
TTAGGACCGGGTTTCGGTTAGTGCTAG	7.6 z-score
TCACCTTTCCTTTGCCTACTGTGCTAG	0.648 z-score
GACTGTATCCTTTTCCTGACGTGCTAG	0.6 z-score
TAGAAATTTTTTTTCTAACTGTGCTAG	0.604 z-score
GACGGTATCGCCTATCGGGACGTGCTA	1.59 z-score
TTATGTATCGACACTGGGTTAGTGCTA	2.58 z-score
TCATTTCTCTGGTTCTTACTGTGCTAG	1.38 z-score
TCAGGTTTCCTACTGCTTTAGTGCTAG	0.276 z-score
TTAGATATCCGTTTCGATTAGTGCTAG	7.47 z-score
TTAGAACTGGGGACTGGATTCGTGCTA	-0.328 z-score
GGCTGTTTGGTTCTGATCCTGTGCTAG	-0.33 z-score
GACGGTTTCGACTTTCGGAACGTGCTA	8.61 z-score

Set 4
Target: ABI1, truncated, D143A, DHFR fusion (Arabidopsis thaliana)
Technique: DHFR PCA, deep sequencing
Medium: yeast
Setting: methotrexate growth selection, single substitutions
Together with: (+)-ABA 0.032 µM
Relative to: wild-type fitted maximum
Direction: higher = stronger binding
Parent: PYL1, truncated, DHFR fusion (Arabidopsis thaliana); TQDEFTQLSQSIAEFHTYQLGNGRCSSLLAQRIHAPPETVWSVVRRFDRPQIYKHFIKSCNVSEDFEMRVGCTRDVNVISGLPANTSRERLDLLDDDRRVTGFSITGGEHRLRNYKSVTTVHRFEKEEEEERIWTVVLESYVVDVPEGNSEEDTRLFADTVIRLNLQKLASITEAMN
Substitution	relative binding score [%]
N85C	53.1
N22I	20.3
T119R	-1.22
D96P	-2.11
V40T	6.51
D65I	-11.9
C25S	-2.56
G108T	-3.73
C25A	16
T6F	33.3

Set 5
Target: CCND3, cyclin fold, Cln2 fusion (human)
Technique: yeast growth competition, sequencing
Medium: yeast
Setting: weak parent motif
Relative to: not given
Direction: higher = stronger binding
Parent: SCAPER docking peptide (human); SNARRSLNFGGST; partner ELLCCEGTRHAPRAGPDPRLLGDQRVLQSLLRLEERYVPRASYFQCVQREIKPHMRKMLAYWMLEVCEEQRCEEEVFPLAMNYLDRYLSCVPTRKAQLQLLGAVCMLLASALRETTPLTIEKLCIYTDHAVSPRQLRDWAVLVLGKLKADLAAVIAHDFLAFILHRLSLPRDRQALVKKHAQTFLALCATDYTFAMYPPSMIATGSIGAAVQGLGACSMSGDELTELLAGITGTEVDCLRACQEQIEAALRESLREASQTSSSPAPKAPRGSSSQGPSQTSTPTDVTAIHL
Substitution	normalised enrichment score
R5H	0.128
T13C	0.169
G10L	0.123
S1F	0.298
S6I	0.122
G11Y	0.141
F9R	0.128
R5E	0.126
S12Q	0.115
S6R	0.202
T13M	0.194
S1E	-0.0137
N2H	0.142
R4K	0.1
R5K F9L	-0.0117
L7F	0.0428
A3T	0.188
S1L	0.168
G11Q	0.12
N2L	0.0961
N8R	0.0945
F9D	0.121
N8H	0.154
G11W	0.0944
T13Q	0.154

Repeated from above (set 4):
Substitution	relative binding score [%]
V40T	6.51
D65I	-11.9
C25S	-2.56
G108T	-3.73
C25A	16
